Assay results pooled from the literature.
Numbered parts are unrelated; each lists some results of a single study.

Block 1 — technique: universal PBM; molecule type: double-stranded DNA, one strand shown; sample: in vitro; concentration: 600 nM; direction: higher = stronger binding
Target: Sal-like protein 4, full length isoform A (SALL4, Homo sapiens, UniProt Q9UJQ4, residues 1-1053)
Sequence of UniProt Q9UJQ4 (whole entry, looked up): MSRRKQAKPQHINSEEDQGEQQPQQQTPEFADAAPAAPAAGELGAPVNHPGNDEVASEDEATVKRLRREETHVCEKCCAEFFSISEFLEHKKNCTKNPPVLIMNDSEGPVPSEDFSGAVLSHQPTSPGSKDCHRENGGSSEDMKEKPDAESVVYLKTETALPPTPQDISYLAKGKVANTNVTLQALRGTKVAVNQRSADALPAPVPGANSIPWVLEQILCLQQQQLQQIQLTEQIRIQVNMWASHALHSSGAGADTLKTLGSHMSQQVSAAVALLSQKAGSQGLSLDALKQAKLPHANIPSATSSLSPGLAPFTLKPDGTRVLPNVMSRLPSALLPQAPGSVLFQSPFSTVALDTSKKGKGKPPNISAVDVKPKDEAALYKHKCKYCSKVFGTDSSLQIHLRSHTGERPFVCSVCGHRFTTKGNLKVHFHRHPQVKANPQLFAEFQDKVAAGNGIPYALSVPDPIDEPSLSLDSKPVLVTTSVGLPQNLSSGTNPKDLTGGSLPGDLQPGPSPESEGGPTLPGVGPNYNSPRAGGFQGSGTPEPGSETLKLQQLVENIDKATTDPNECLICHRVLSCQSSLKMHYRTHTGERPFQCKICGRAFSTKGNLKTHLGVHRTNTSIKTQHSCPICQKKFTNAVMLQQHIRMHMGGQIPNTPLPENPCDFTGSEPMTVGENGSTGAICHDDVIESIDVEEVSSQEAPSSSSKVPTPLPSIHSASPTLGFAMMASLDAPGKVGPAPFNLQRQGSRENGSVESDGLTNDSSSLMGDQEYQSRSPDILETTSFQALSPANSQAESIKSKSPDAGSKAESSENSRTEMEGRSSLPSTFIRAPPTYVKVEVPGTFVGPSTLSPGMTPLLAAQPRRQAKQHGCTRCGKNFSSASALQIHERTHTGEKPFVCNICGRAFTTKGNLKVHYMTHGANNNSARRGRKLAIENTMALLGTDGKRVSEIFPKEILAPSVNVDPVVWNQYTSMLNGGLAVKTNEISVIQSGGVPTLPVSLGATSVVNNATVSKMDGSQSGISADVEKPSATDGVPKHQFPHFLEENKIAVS
Setting: 8-mer, flanks averaged, mean of replicates
Sequence | E-score
CCGACCTA | -0.151
CAATTCTA | 0.204
GCGATCCA | -0.23
CCGACCGC | -0.257
ACGCGGTG | -0.291
AGTACCAC | -0.0568
ATCTACTC | 0.12
GCCCCGAC | -0.36
AGGGTAGC | -0.136

Block 2 — technique: RNA Bind-n-Seq; molecule type: RNA; sample: in vitro; concentration: 365 nM; reference: no-protein control; direction: higher = stronger binding
Target: RNA binding protein fox-1 homolog 2, RRM domain, GST-SBP tag (RBFOX2, Homo sapiens, UniProt O43251-10, residues 100-194)
Setting: natural RNA segment, single round, ends assumed
Constant ends, left off below: GGGAGUUCUACAGUCCGACGAUC … UGGAAUUCUCGGGUGCCAA
Residues (chain): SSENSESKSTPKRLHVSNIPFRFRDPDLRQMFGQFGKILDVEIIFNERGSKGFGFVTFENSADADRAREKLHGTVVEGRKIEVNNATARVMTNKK
Sequence | RBNS enrichment (R)
UAUACACUGAGAAGGAAGAAAGGAGCCAGUGAUUCCAGGAGGAGGAGGGCCCGGCCAGGGACUCCCCAGUAUUUCCAGGCCAUAAUGGUGGACCCACAGCCCUGACUUCA | 0.411
GGAGUAGGGCCUGUGGCUCAGCGCUAGGCCACGCACGCAGCAUCCCAGGCAUGUGGUGAGAAACUGCCUUAAUGUGUCUCCUCUGUUCUUGUCAACAGGAGGCUCAAGAU | 14.5
GGUGUGCACUAGAAAACCCAGUGGUUGUUUUUAUUAUUGACUGUAGUCCAGCAUCACGGAGAAAGGCCAAUCCUCUUAGGAGCAUUGGACAGCUCAACCAUGUUGUCAUC | 0.423
GGGAACAGGAGGACUGGGCUUAGCACAGAGCCAUCAUCAUGUUCCCAAUUUGUGAAGAGACUCCUAACACUGCACUAACCCAUUUGUGUACAUACAUGGGCUCAGCCCUG | 1.29
UCAAGCUUUAAUUUGGAUCCACACCUACAGCUGACCCAAAUGUCUCCUCUGUAGUCAUCUUAUUUGGAUCAGGGAGAAGCAUGAACAAAAAUAUGUUCCAGAACCAUGUG | 0.748
AAAUUACUUUCUCAUUCUUUUAGUGUAUUCAACAUUGUCUGCCUCUUCCUGCAGUUGAUGUAAUUGCUUUGUUUGCAAUAGCACAAGCUGCAUUAUUCCAGUCAGGACUG | 0.492
AGUGGGUCUGCUUCACUGUGGAAGGAGAAACUGUGACUUUCUGGUUGCAUUACUGCAAAACAGCAAAAACCGAAUAACCCGAGCCCUGCUGCUUUCUGAGCCCUGGGCCU | 0.243
CAAGGACGUUAAAGGCAUUUUAUUCCAGCGUCUUCUAGAGAGCUUAGUGUAUACAGAUGAGGGUGUCCGCUGCUGCUUUCCUUCGGAAUCCAGUGCUUCCACAGAGAUUA | 0.738

Block 3 — technique: aptamer microarray, sandwich; molecule type: DNA with 2'F-ANA; sample: in vitro; concentration: 200 nM; with: Cy3 exosite-II aptamer, 400 nM; direction: higher = stronger binding; sequence: GGTTGGTGTGGTTGG
Target: Prothrombin, mature alpha-thrombin (F2, Homo sapiens, UniProt P00734)
Setting: whole 15-mer aptamer, many near background
Modification | mean fluorescence intensity [a.u.]
2'F-ANA at 2 3 6 7 9 10 11 12 13 | 314
2'F-ANA at 2 3 4 5 9 11 13 14 15 | 50.7
2'F-ANA at 2 5 11 13 | 56.2
2'F-ANA at 1 2 5 6 7 10 12 13 | 47.9
2'F-ANA at 1 3 4 8 9 11 14 15 | 62.9
2'F-ANA at 1 3 4 5 7 8 13 | 62.3
2'F-ANA at 3 6 7 9 10 12 15 | 542
2'F-ANA at 2 3 7 8 11 12 14 15 | 498
2'F-ANA at 1 4 5 7 8 9 13 14 | 58.5
2'F-ANA at 3 4 7 8 12 | 1280
2'F-ANA at 2 3 8 9 10 11 13 14 15 | 249
2'F-ANA at 1 3 5 7 8 9 10 11 12 15 | 53.8
2'F-ANA at 3 4 7 9 10 11 13 14 15 | 210

Mixed results
Molecule | target | assay | system | setting | scale | quantity | result
PhoQ, residues 284 288 289 292 302 303 TLASMF | PhoP, residues 12 14 15 18 19 TPLRH (Escherichia coli, UniProt P23836) | Sort-seq, measured: YFP reporter | E. coli | PhoQ-PhoP variant library, with: 10 µM Mg2+ | reference: high Mg2+ state, higher = stronger signaling | fold induction | 1.11

A few entries again (block 2):
Sequence | RBNS enrichment (R)
GGUGUGCACUAGAAAACCCAGUGGUUGUUUUUAUUAUUGACUGUAGUCCAGCAUCACGGAGAAAGGCCAAUCCUCUUAGGAGCAUUGGACAGCUCAACCAUGUUGUCAUC | 0.423
GGGAACAGGAGGACUGGGCUUAGCACAGAGCCAUCAUCAUGUUCCCAAUUUGUGAAGAGACUCCUAACACUGCACUAACCCAUUUGUGUACAUACAUGGGCUCAGCCCUG | 1.29
UCAAGCUUUAAUUUGGAUCCACACCUACAGCUGACCCAAAUGUCUCCUCUGUAGUCAUCUUAUUUGGAUCAGGGAGAAGCAUGAACAAAAAUAUGUUCCAGAACCAUGUG | 0.748
